{"data": "Experimental data pooled from the literature", "note": "Lines come from different studies, so protocols differ. “And” joins repeats or separate records; there may be more than shown. ± marks the error that the study gave."}
{"Compound": "COc1ccc2[nH]c([S+]([O-])Cc3ncc(C)c(OC)c3C)nc2c1 (centres unmarked)", "system": "human male, plasma and dried plasma spots", "conditions": "oral, dose not given, 4 h, together with: fluvoxamine plus voriconazole", "scale": "baseline: inhibited over baseline", "endpoint": "R/S ratio change", "result": 1.65}
{"Compound": "COc1cc(C(=O)O)ccc1O", "system": "human plasma", "conditions": "median, both sexes", "endpoint": "plasma concentration", "result": "80.9 nM"}
{"Compound": "N#Cc1ccc2c(c1)[C@H]1CCCN(C(=O)c3ccc4[nH]cnc4c3)[C@H]1C2", "system": "human", "conditions": "10 mg, end of trial", "scale": "baseline: baseline", "endpoint": "ACTH level change", "result": "1 pmol/L"}
{"Compound": "O=C(NC[C@H]1CN(c2ccc(N3CCOCC3=O)cc2)C(=O)O1)c1ccc(Cl)s1", "test": "Phoenix NLME, model A", "system": "human, atrial fibrillation patients, plasma", "conditions": "oral", "endpoint": "typical population clearance", "result": "89 mL/min"}
{"Compound": "COc1cc2c3c(n(CCCN4CCOCC4)c(=O)c2cc1OC)-c1cc2c(cc1C3=O)OCO2", "system": "Fischer 344 rats, female", "conditions": "intravenous bolus, 12 mg/m^2", "endpoint": "clearance", "result": "29.3 L/h/m²"}
{"Compound": "Cn1cnc2[nH]c(=O)[nH]c(=O)c21", "system": "human, both sexes, cerebrospinal fluid", "endpoint": "samples above LOQ", "result": "0%"}
{"Compound": "COc1ccc2c(c1)CN(C(=O)CCN1CCC(Cc3ccccc3)CC1)CC[S@@+]2[O-]", "test": "telemetry", "system": "conscious male beagle dogs", "conditions": "intravenous, 4 mg/kg, 2 h", "endpoint": "PQ interval", "result": "92 ± 6 ms"}
{"Compound": "CCN(Cc1ccc(F)cc1)c1ccc(CO)c(Cl)c1", "system": "F344 rat, male, serum", "conditions": "oral, 100 mg/kg/day, 2 days", "endpoint": "ALT", "result": "846 U/L and 64 U/L and 326 U/L"}
{"Compound": "COc1c(O)c(C)cc2c1C(=O)c1c(ccc(O)c1O)C2=O", "target or system": "HepaRG co-cultured with HK-2", "test": "MTT", "conditions": "66.67 µM, 48 h", "scale": "baseline: untreated control", "endpoint": "cell viability", "result": "39.8 ± 3.29%"}
{"Compound": "CNC(=O)c1ccc(-c2cnc3ncc(Cc4ccc5ncccc5c4)n3n2)cc1F", "system": "Japanese patients", "conditions": "oral, 400 mg, any grade", "endpoint": "Amylase increased dose reduction/interruption", "result": "3%"}
{"Compound": "COc1c(O)c(C)cc2c1C(=O)c1c(O)cccc1C2=O", "target or system": "HepaRG co-cultured with HK-2", "test": "MTT", "conditions": "266.67 µM, 48 h", "scale": "baseline: untreated control", "endpoint": "cell viability", "result": "39.6 ± 8.26%"}
{"Compound": "CN(C)C(=O)CCc1nc(-c2ccccc2)c(-c2ccccc2)o1", "target or system": "COS-7", "conditions": "50 µM, 24 h, 0.1% DMSO, unit not given", "scale": "baseline: vehicle control", "endpoint": "necrotic cells", "result": "0.75 ± 0.27"}
{"Compound": "COc1cc(CCC(=O)O)ccc1OS(=O)(=O)O", "system": "human plasma", "conditions": "median", "endpoint": "plasma concentration", "result": "257 nM"}
{"Compound": "N#CCNC(=O)c1ccc(-c2ccnc(Nc3ccc(N4CCOCC4=O)cc3)n2)cc1", "system": "healthy volunteers, plasma", "conditions": "dose not given, together with: ritonavir multiple-dose", "scale": "baseline: compound alone", "endpoint": "AUCtau increase", "result": "24%"}
{"Compound": "COc1cccc(OC)c1-c1cc(C(=O)NC2(C(=O)O)C3CC4CC(C3)CC2C4)nn1-c1ccc(C(=O)N(C)CCCN(C)CCCN(C)C(=O)CN2CCN(CC(=O)[O-])CCN(CC(=O)[O-])CCN(CC(=O)[O-])CC2)cc1C(C)C.[177Lu+3] (centres unmarked)", "system": "mouse, HT-29 xenograft, HT-29 tumour", "conditions": "72 h post injection", "endpoint": "tissue uptake", "result": "6 %ID/g"}
{"Compound": "CO[C@@H]1[C@@H](OC(N)=O)[C@@H](O)[C@H](Oc2ccc3c(O)c(NC(=O)c4ccc(O)c(CC=C(C)C)c4)c(=O)oc3c2C)OC1(C)C", "test": "starch gel membrane permeability", "system": "Gram-negative envelope surrogate", "conditions": "200 µM, 30 min, pH 7.4", "endpoint": "amount permeated", "result": "1.06 nmol"}
{"Compound": "N#C[C@@]12C[C@@H]1[C@@H](n1cnc3c(N[C@@H](C4CCC4)C4CC4)nc(I)nc31)[C@H](O)[C@@H]2O", "system": "Wistar rats male, plasma", "conditions": "oral, 10.0 mg/kg", "endpoint": "clearance", "result": "477 mL/min/kg"}
{"Compound": "COCCOc1cnc2ccn([C@H](C)c3nnc4c(F)cc(-c5cnn(C)c5)cn34)c(=O)c2c1", "system": "patients, plasma", "conditions": "oral, 200 mg twice daily, day 1, 400 per day", "endpoint": "Cmax", "result": "2600 ng/mL"}
{"Compound": "Cl.[2H]C([2H])([2H])CC(=O)c1cnc(NC(=O)C2CC2)cc1Nc1cccc(-c2ncn(C([2H])([2H])[2H])n2)c1OC", "test": "geometric mean", "system": "human", "conditions": "oral, 20 mg twice daily, day 1, fed, liquid, multiple dose", "endpoint": "Vz/F", "result": "118 L"}
{"Compound": "CCc1cc(C(=O)NC)c2nccc(N3CCc4c(cc(Cn5ccnc5)cc4-c4cn(C)nc4C(F)(F)F)C3=O)c2c1", "system": "Sprague Dawley rats", "conditions": "oral, 50 mg/kg once daily, 7 days", "scale": "baseline: vehicle", "endpoint": "serum GGT change", "result": "-50%"}
{"Compound": "O=C(O)C[C@H](O)C[C@H](O)/C=C/c1c(C2CC2)nc2ccccc2c1-c1ccc(F)cc1", "target or system": "COS-7", "test": "WST-8", "conditions": "10 µM, 24 h, 0.1% DMSO, unit not given", "scale": "baseline: vehicle control", "endpoint": "metabolic activity", "result": "0.88 ± 0.02"}
{"Compound": "CCn1cc(C(=O)O)c(=O)c2cnc(N3CCNCC3)nc21", "test": "starch gel membrane permeability", "system": "Gram-negative envelope surrogate", "conditions": "200 µM, 10 min, pH 7.4", "endpoint": "amount permeated", "result": "0.89 nmol"}
{"Compound": "CCO[C@H]1CCN(Cc2c(OC)cc(C)c3[nH]ccc23)[C@H](c2ccc(C(=O)O)cc2)C1", "system": "human moderate hepatic impairment, plasma", "conditions": "oral, 200 mg single dose, median", "endpoint": "total Cmax", "result": "3150 ng/mL"}
{"note": "A few entries again:"}
{"Compound": "COc1ccc2c(c1)CN(C(=O)CCN1CCC(Cc3ccccc3)CC1)CC[S@@+]2[O-]", "test": "telemetry", "system": "conscious male beagle dogs", "conditions": "intravenous, 4 mg/kg, 2 h", "endpoint": "PQ interval", "result": "92 ± 6 ms"}
{"Compound": "CO[C@@H]1[C@@H](OC(N)=O)[C@@H](O)[C@H](Oc2ccc3c(O)c(NC(=O)c4ccc(O)c(CC=C(C)C)c4)c(=O)oc3c2C)OC1(C)C", "test": "starch gel membrane permeability", "system": "Gram-negative envelope surrogate", "conditions": "200 µM, 30 min, pH 7.4", "endpoint": "amount permeated", "result": "1.06 nmol"}
{"Compound": "O=C(O)C[C@H](O)C[C@H](O)/C=C/c1c(C2CC2)nc2ccccc2c1-c1ccc(F)cc1", "target or system": "COS-7", "test": "WST-8", "conditions": "10 µM, 24 h, 0.1% DMSO, unit not given", "scale": "baseline: vehicle control", "endpoint": "metabolic activity", "result": "0.88 ± 0.02"}
